Published values from different studies.
A part holds a random share of what one study measured.

Block 1
Target: Replicase polyprotein 1ab, polymerase (rep, Severe acute respiratory syndrome coronavirus 2, UniProt P0DTD1)
Observed: enzyme activity
Mode: inhibitor
Tested at: 20 µM
Endpoint: inhibition
Compound = Cc1cccc(N2CC(CO)OC2=O)c1 (stereo not shown); result = 0.16%
Compound = Cc1c(C(=O)NN2CCOCC2)nn(-c2ccc(Cl)cc2Cl)c1-c1ccc(I)cc1; result = 23.7%
Compound = COc1nc2ccc(Br)cc2cc1[C@@H](c1ccccc1)[C@@](O)(CCN(C)C)c1cccc2ccccc12; result = -2.34%
Compound = CN1CCN(c2ccc(C(=O)Nc3n[nH]c4ccc(Cc5cc(F)cc(F)c5)cc34)c(NC3CCOCC3)c2)CC1; result = -1.19%
Compound = CCc1nc(C)ccc1O; result = 0.97%
Compound = CO[C@H]1CC[C@@H](C(=O)c2ccc3nc4c(cc3c2)CCCO4)CC1; result = 3.15%
Compound = CCOc1nc2cccc(C(=O)OC(C)OC(=O)OC3CCCCC3)c2n1Cc1ccc(-c2ccccc2-c2nn[nH]n2)cc1 (stereo not shown); result = -8.07%
Compound = O=C(NCCO)c1cc(C(=O)NCCO)cc(C(=O)NCCO)c1; result = -9.09%
Compound = NC[C@H]1O[C@H](O[C@H]2[C@H](O)[C@@H](O[C@H]3O[C@H](CO)[C@@H](O)[C@H](N)[C@H]3O)[C@H](N)C[C@@H]2N)[C@H](N)C[C@@H]1O; result = 19.1%
Compound = CN1[C@H]2C[C@H](OC(=O)[C@H](CO)c3ccccc3)C[C@@H]1[C@@H](O)C2 (racemic); result = 2.78%
Compound = CC(C)c1cc(C(C)C)c(CC(=O)NS(=O)(=O)Oc2c(C(C)C)cccc2C(C)C)c(C(C)C)c1; result = 4.42%
Compound = CS(=O)(=O)Nc1cc2occ(NC=O)c(=O)c2cc1Oc1ccccc1; result = -5.13%
Compound = NC(=O)c1cn([C@@H]2O[C@H](CO)[C@@H](O)[C@H]2O)c2ncnc(N)c2c1=O; result = 5.27%
Compound = O=C(O)[C@H]1CN(C/C=C/P(=O)(O)O)CCN1; result = -1.88%
Compound = C(=C\c1ccccc1)/CN1CCN(CCOC(c2ccccc2)c2ccccc2)CC1; result = 3.49%
Compound = CC(COc1ccccc1Cc1ccccc1)N1CCCCC1 (stereo not shown); result = 93.3%
Compound = Cn1cc(C(F)(F)F)nc1-c1ccc(OCC(O)CNCCOc2ccc(O)c(C(N)=O)c2)cc1 (stereo not shown); result = 7.12%
Compound = CCNC(=O)/C=C/c1cccc(Br)c1; result = 11.3%
Compound = NC(=O)c1cccc(-c2cc(Nc3ccc(OC(F)(F)F)cc3)ncn2)c1; result = 11.1%
Compound = O=C1NCC2(CCN(CCc3ccccc3)CC2)O1; result = 18%
Compound = OC(c1ccccc1)(c1ccccc1)C1CCNCC1; result = -5.21%
Compound = N[C@@H](CCC(=O)N[C@@H](CSN=O)C(=O)NCC(=O)O)C(=O)O; result = -8.85%
Compound = CN(C)/N=N/c1[nH]cnc1C(N)=O; result = -0.35%
Compound = CCOc1cc(C(=O)Nc2ccc(Cl)c(-c3nc4ccccc4[nH]3)c2)cc(OCC)c1OCC; result = -0.83%
Compound = NC(=O)C[C@H](N)C(=O)O; result = 0.57%

Block 2
Target: Histone acetyltransferase KAT6A, winged helix 1, GST fusion (KAT6A, Homo sapiens, UniProt Q92794, residues 1-85)
Technique: protein binding microarray
Form: double-stranded DNA, one strand shown
Sample: in vitro
Tested at: not given
Notes: 8-mer, flanks averaged, mean of 2 arrays, mostly near background
Baseline: not given
Reading: higher = stronger binding
Endpoint: E-score
Target sequence (chain): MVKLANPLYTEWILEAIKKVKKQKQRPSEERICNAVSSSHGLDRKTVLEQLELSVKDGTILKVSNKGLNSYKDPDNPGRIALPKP
Strand = ACGTAAGT; result = -0.0785
Strand = CACTATTA; result = -0.0815
Strand = CCGGGCGA; result = 0.247
Strand = ATGCGGGG; result = 0.247
Strand = AAATTCCC; result = 0.0983
Strand = TCAGGCGA; result = -0.0485
Strand = GCAGTGGC; result = 0.143
Strand = CAGCAAGC; result = -0.14

Block 3
Target: Sal-like protein 4, full length isoform B (SALL4, Homo sapiens, UniProt Q9UJQ4-2, residues 1-616)
Technique: universal PBM
Form: double-stranded DNA, one strand shown
Sample: in vitro
Tested at: not given
Notes: 8-mer, flanks averaged, mean of replicates
Reading: higher = stronger binding
Endpoint: E-score
Strand = AAGCTCAC; result = -0.212
Strand = GCCGGATA; result = -0.00574
Strand = GCTTCTGA; result = -0.0341
Strand = TAGGCCCA; result = -0.15
Strand = TCCGCTCA; result = -0.191
Strand = GGGTGACA; result = -0.12
Strand = ACGCATTA; result = 0.163
Strand = ACAAGATC; result = -0.0125

Block 4
Cell line: HEK-293T
Observed: pseudovirus infection
Technique: FDA-approved drug library screen
Organism: VSV pseudotyped with SARS-CoV-2 spike
Tested at: 10 µM
Time: 16 h
Baseline: vehicle-treated
Endpoint: GFP-positive cells
SMILES = CCCCOc1ccc(OCCCN2CCOCC2)cc1; result = 66.6%
SMILES = CCC(=O)NCC[C@@H]1CCc2ccc3c(c21)CCO3; result = 103%
SMILES = CC(C)N(CCC(C(N)=O)(c1ccccc1)c1ccccn1)C(C)C (stereo not shown); result = 92.1%

Block 5
Target: Replicase polyprotein 1ab, main protease (rep, Severe acute respiratory syndrome coronavirus 2, UniProt P0DTD1)
Observed: enzyme activity
Mode: inhibitor
Endpoint: IC50
Compound = COc1ccc(OC)c2c(=S)c3ccccc3[nH]c12; result = > 20 µM
Compound = COc1ccc([N+](=O)[O-])c(S(=O)(=O)c2ccc(Cl)cc2)n1; result = 5.05 µM
Compound = COC(=O)/C=C/c1cc(O)ccc1O; result = 13 µM

Block 6
Target: Centromere-binding protein 1, full length, N-terminal tag (CBF1, Saccharomyces cerevisiae, UniProt P17106, residues 1-351)
Sequence of UniProt P17106 (whole entry, looked up): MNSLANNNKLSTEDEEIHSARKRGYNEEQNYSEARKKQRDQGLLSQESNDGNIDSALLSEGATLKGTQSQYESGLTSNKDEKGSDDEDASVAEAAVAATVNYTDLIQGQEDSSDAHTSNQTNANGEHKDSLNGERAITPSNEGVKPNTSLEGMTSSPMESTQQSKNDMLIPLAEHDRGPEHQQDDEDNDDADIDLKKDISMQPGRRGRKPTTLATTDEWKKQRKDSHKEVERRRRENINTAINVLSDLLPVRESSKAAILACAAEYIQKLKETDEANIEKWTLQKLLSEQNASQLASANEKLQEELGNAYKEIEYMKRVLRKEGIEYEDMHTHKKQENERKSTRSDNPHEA
Technique: protein-binding microarray
Form: double-stranded DNA, one strand shown
Sample: in vitro
Tested at: 0.8 µM
Notes: whole 60-bp probe, no competitor
Reading: higher = stronger binding
Endpoint: fluorescence intensity
Shared flanks, not repeated: … GTCTTGATTCGCTTGACGCTGCTG
Strand = GAACCTGATTCACGTGATGTGGGAATTTTGTCTTAG; result = 16600 a.u.
Strand = CTACGCTTGACTCCACTCGTGAGTCATGTTTGGTTC; result = 583 a.u.
Strand = TGTACGAAGCTATAACACGTGTGTATAGTAGTTAGG; result = 6390 a.u.
Strand = CTATGACTGGACGGTGATGCAGTAGCTGTTAACTTC; result = 492 a.u.
Strand = CTACGGACCCTTCTCCACGTTTCGATCTTTGGCTTC; result = 500 a.u.

Some of these lines once more (block 1):
Compound = O=C(O)[C@H]1CN(C/C=C/P(=O)(O)O)CCN1; result = -1.88%
Compound = C(=C\c1ccccc1)/CN1CCN(CCOC(c2ccccc2)c2ccccc2)CC1; result = 3.49%
Compound = CC(COc1ccccc1Cc1ccccc1)N1CCCCC1 (stereo not shown); result = 93.3%
Compound = Cn1cc(C(F)(F)F)nc1-c1ccc(OCC(O)CNCCOc2ccc(O)c(C(N)=O)c2)cc1 (stereo not shown); result = 7.12%
Compound = CCNC(=O)/C=C/c1cccc(Br)c1; result = 11.3%
